Earlier results as cited in several papers.
Each line is one published result; not all experiments were run side by side. Numbers after ± are the reported error. Values after ≈ are worked out from the molar mass of the structure shown.
Sequence of UniProt P51589 (whole entry, looked up): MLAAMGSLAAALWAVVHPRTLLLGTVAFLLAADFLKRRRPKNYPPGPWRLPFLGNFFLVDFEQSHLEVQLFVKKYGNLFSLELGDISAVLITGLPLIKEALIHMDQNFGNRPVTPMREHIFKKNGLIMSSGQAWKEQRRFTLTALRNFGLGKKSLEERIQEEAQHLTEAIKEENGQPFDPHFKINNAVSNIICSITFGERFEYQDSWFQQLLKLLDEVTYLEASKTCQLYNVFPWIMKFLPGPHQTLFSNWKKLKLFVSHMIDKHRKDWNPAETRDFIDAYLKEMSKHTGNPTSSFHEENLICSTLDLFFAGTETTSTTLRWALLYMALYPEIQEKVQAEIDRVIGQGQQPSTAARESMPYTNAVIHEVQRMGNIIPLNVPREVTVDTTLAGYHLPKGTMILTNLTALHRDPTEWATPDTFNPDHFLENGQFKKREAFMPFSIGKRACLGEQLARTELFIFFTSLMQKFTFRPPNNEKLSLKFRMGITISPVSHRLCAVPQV
Sequence of UniProt Q9UNU6 (whole entry, unmodified, looked up): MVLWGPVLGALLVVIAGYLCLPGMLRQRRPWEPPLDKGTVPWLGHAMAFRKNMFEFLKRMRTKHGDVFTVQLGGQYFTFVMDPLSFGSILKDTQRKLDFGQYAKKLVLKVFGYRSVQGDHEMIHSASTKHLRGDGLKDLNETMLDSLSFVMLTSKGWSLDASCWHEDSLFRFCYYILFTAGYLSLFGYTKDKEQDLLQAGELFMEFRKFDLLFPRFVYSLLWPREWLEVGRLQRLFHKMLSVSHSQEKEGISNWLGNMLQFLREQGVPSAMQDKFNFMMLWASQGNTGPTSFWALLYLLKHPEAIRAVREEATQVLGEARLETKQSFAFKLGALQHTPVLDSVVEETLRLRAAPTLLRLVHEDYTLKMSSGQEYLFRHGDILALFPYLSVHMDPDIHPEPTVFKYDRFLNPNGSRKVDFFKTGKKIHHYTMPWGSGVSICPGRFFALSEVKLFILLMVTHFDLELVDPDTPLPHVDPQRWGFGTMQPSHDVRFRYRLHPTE
Sequence of UniProt Q13336 (whole entry, looked up): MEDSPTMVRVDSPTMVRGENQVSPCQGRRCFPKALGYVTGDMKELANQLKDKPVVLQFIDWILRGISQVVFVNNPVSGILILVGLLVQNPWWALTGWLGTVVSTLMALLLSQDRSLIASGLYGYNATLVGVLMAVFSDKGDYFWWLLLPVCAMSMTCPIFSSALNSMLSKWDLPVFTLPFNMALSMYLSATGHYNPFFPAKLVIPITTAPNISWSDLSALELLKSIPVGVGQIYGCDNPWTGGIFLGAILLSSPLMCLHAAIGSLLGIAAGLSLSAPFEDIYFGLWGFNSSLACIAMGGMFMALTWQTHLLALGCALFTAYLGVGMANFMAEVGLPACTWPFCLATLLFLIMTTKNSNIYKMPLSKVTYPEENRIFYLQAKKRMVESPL
Sequence of UniProt Q9UEE5 (whole entry, looked up): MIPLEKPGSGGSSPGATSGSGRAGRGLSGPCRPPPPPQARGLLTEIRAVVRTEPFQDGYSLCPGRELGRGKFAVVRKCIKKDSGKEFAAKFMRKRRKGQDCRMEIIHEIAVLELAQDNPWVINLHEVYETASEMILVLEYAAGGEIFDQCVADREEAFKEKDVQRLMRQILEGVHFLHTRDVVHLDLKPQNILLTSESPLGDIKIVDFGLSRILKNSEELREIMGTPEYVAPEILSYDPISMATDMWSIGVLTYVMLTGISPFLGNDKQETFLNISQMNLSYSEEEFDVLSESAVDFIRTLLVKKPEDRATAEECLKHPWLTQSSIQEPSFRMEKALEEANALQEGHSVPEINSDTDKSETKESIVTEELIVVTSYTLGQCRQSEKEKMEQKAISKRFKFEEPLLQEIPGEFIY

SMILES | tested on | assay | system | setting | scale | quantity | result
CC(C)c1nc(N(C)S(C)(=O)=O)nc(-c2ccc(F)cc2)c1/C=C/[C@@H](O)C[C@@H](O)CC(=O)O | BCRP |  | human | oral, 10 mg, together with: eltrombopag 75 mg oral | baseline: eltrombopag alone | Cmax increase | 103%
COc1cc2c(c(OC)c1OC)-c1c(cc(OC)c(OC)c1OC)C[C@H](C)[C@H](C)C2 | CYP3A, rat | enzyme activity, inhibitor | rat liver microsomes |  |  | Ki | 5.8 µM
CC(O)C(C)n1ncn(-c2ccc(N3CCN(c4ccc(OCC5COC(Cn6cncn6)(c6ccc(Cl)cc6Cl)O5)cc4)CC3)cc2)c1=O (stereo not shown) | CYP3A4 human | substrate |  |  |  | Km | 0.027 µM
NS(=O)(=O)C(F)(F)C(F)(F)C(F)(F)C(F)(F)C(F)(F)C(F)(F)C(F)(F)C(F)(F)F | CYP3A4 |  |  | concentration not given |  | activity | inactive
CO[C@H]1/C=C/O[C@@]2(C)Oc3c(C)c(O)c4c(O)c(c(/C=N/N5CCN(C)CC5)c(O)c4c3C2=O)NC(=O)/C(C)=C\C=C\[C@H](C)[C@H](O)[C@@H](C)[C@@H](O)[C@@H](C)[C@H](OC(C)=O)[C@@H]1C | OATP1B1 and OATP1B3 |  |  |  | baseline: IC50 over clinical Cmax | IC50 to Cmax ratio | > 10 fold
CNCc1cn(S(=O)(=O)c2cccc(F)c2)c(-c2ccc(F)cc2F)c1OC | OAT3 | transporter uptake, inhibitor |  |  |  | IC50 | > 100 µM
O=C(O)CN1CCN(CC(=O)O)CCN(CC(=O)O)CC1 | Cu2+ |  |  | pH 7.4 |  | pCu | 17.6
CC(C)CCC[C@@H](C)[C@H]1CC[C@H]2[C@@H]3[C@H](O)CC4=CC(=O)CC[C@]4(C)[C@H]3CC[C@]12C | 7-alpha-hydroxycholest-4-en-3-one 12-alpha-hydroxylase (Homo sapiens, UniProt Q9UNU6, W281F) |  |  |  | baseline: W281F mutant over wild type | Kd fold increase | ~2 fold
CCC(C)n1ncn(-c2ccc(N3CCN(c4ccc(OCC5COC(Cn6cncn6)(c6ccc(Cl)cc6Cl)O5)cc4)CC3)cc2)c1=O (stereo not shown) | CYP3A5 |  |  |  |  | Ki | 0.94 µM
CO[C@]1(C(=O)N[C@@H](C)c2ccc(-n3cc(F)cn3)nc2)CC[C@H](c2nc(C)cc(Nc3cc(C)[nH]n3)n2)CC1 | BCRP |  | MDCK-BCRP | together with: Ko143 |  | efflux ratio decrease | 55.4%
COc1cc(Nc2ncc(F)c(Nc3ccc4c(n3)N(COP(=O)(O)O)C(=O)C(C)(C)O4)n2)cc(OC)c1OC | human BCRP (ABCG2) |  |  | literature geometric mean |  | IC50 | 0.05 µM
Cc1cc(-c2nccc3c2ccn3CC(=O)Nc2ccc(-c3cnccn3)cn2)ccn1 | hERG potassium channel | ion current, inhibitor |  | 18.4 µM |  | inhibition | 30.5 ± 4.4%
Cc1[nH]c(C)c(-c2ccc(OCc3ccccc3)cc2)c(=O)c1Br | Plasmodium falciparum | whole cell extended time | 3D7 | 72 h |  | IC50 | 0.28 µM
C=C[C@@H]1C[C@]1(NC(=O)[C@@H]1C[C@@H]2CN1C(=O)[C@H](C(C)(C)C)NC(=O)O[C@@H]1C[C@H]1CCCCCc1nc3ccc(OC)cc3nc1O2)C(=O)NS(=O)(=O)C1CC1 | human BCRP (ABCG2) |  |  | literature geometric mean |  | IC50 | 12.5 µM
CO[C@H]1/C=C/O[C@@]2(C)Oc3c(C)c(O)c4c(O)c(c(/C=N/N5CCN(C)CC5)c(O)c4c3C2=O)NC(=O)/C(C)=C\C=C\[C@H](C)[C@H](O)[C@@H](C)[C@@H](O)[C@@H](C)[C@H](OC(C)=O)[C@@H]1C | P-glycoprotein (MDR1) | inhibitor |  |  |  | Ki | 4 to 23 µM
Cc1[nH]c(C)c(-c2ccc(-c3ccc(Cl)cc3)nc2)c(=O)c1Cl | Plasmodium falciparum | whole cell extended time | 3D7 | 72 h |  | IC50 | 0.11 µM
C[C@@H](c1ncncc1F)[C@](O)(Cn1cncn1)c1ccc(F)cc1F | P-glycoprotein | in vitro |  | concentration not given |  | inhibition | no inhibition
CCNS(=O)(=O)C(F)(F)C(F)(F)C(F)(F)C(F)(F)C(F)(F)C(F)(F)C(F)(F)C(F)(F)F | CYP2D6 |  |  | concentration not given |  | activity | inactive
COc1cc(Nc2ncc(F)c(Nc3ccc4c(n3)NC(=O)C(C)(C)O4)n2)cc(OC)c1OC | human BCRP (ABCG2) |  |  | literature geometric mean |  | IC50 | 0.28 µM
CNC(C)C1CCC(N)C(OC2C(N)CC(N)C(OC3OCC(C)(O)C(NC)C3O)C2O)O1 (stereo not shown) | Pseudomonas aeruginosa |  | clinical isolate RKI-No_230/10 |  |  | MIC | 8 µg/mL (≈ 16.8 µM)

SMILES | tested on | assay | system | setting | scale | quantity | result
C=C(C)C(=O)OCCC(F)(F)C(F)(F)C(F)(F)C(F)(F)C(F)(F)C(F)(F)F | CYP2C9 |  |  | concentration not given |  | activity | inactive
OC(Cn1cncn1)(Cn1cncn1)c1ccc(F)cc1F | CYP3A5 | enzyme activity, inhibitor |  |  |  | Ki | 53 to 148 µM
FC(F)(F)C(F)(F)C(F)(F)C(F)(F)C(F)(F)C(F)(F)C(F)(F)C(F)(F)Br | CYP2C9 | inhibitor |  | Tox21 screening |  | IC50 | inactive
CC[C@@H]([C@H](C)O)n1ncn(-c2ccc(N3CCN(c4ccc(OC[C@@H]5CO[C@@](Cn6cncn6)(c6ccc(F)cc6F)C5)cc4)CC3)cc2)c1=O | UGT1A4 (human) |  |  |  |  | glucuronidated fraction | 17%
CCn1c(=O)c(-c2cc(NC(=O)Nc3ccccc3)c(F)cc2Br)cc2cnc(NC)cc21 | human alpha-1-acid glycoprotein |  |  |  |  | plasma protein binding | 99.4%
O=S(=O)(O)C(F)(F)F | CYP2D6 | inhibitor |  | Tox21 screening |  | IC50 | 39.9 ± 23 µM
CN(C)C(=O)c1cc2cnc(Nc3ccc(N4CCNCC4)cn3)nc2n1C1CCCC1 | CYP1A2 | refers to: caffeine | human | 400 mg once daily, 8 days | baseline: caffeine alone | increase in AUCinf | 20%
C[C@H]1COCCN1c1nc(-c2cnc(N)cc2C(F)F)nc(N2CCOCC2)n1 | COLO-829 |  |  |  |  | GI50 | 0.93 µM
COc1cccc2c1C(=O)c1c(O)c3c(c(O)c1C2=O)C[C@@](O)(C(=O)CO)C[C@@H]3O[C@H]1C[C@H](N)[C@H](O)[C@H](C)O1 | Cytochrome P450 2J2 (CYP2J2, Homo sapiens, UniProt P51589) |  |  |  |  | Kd | 5.33 µM
CC[C@H]1OC(=O)[C@H](C)[C@@H](O[C@H]2C[C@@](C)(OC)[C@@H](O)[C@H](C)O2)[C@H](C)[C@@H](O[C@@H]2O[C@H](C)C[C@H](N(C)C)[C@H]2O)[C@](C)(OC)C[C@@H](C)C(=O)[C@H](C)[C@@H](O)[C@]1(C)O | P-glycoprotein (ABCB1) | inhibitor | gut | Simcyp library default value |  | Ki | 4 µM
O=C(CCc1ccc(O)cc1)c1c(O)cc(O)cc1O | Urea transporter 1 (Homo sapiens, UniProt Q13336) | inhibitor |  |  |  | urea permeability | inhibited
COc1cnc(-n2cnc(C)n2)c2[nH]cc(C(=O)C(=O)N3CCN(C(=O)c4ccccc4)CC3)c12 | esterases |  |  |  |  | metabolism share | 36.1%
O=C1Nc2ccc(Cl)cc2[C@@](C#CC2CC2)(C(F)(F)F)O1 | 2B6 |  |  | Simcyp compound file |  | intrinsic clearance | 1.36 µL/min/pmol
CC(=O)C(C)n1ncn(-c2ccc(N3CCN(c4ccc(OC[C@H]5CO[C@](Cn6cncn6)(c6ccc(Cl)cc6Cl)O5)cc4)CC3)cc2)c1=O (stereo partly shown) | CYP3A4 human | substrate |  |  |  | Vmax | 86.9 pmol/min/nmol
CC1(C)S[C@@H]2[C@H](NC(=O)[C@H](N)c3ccccc3)C(=O)N2[C@H]1C(=O)O | Pseudomonas aeruginosa |  | clinical isolate RKI-No_230/10 |  |  | MIC | > 16 µg/mL
CO[C@H]1C[C@@H]2CC[C@@H](C)[C@@](O)(O2)C(=O)C(=O)N2CCCC[C@H]2C(=O)O[C@H]([C@H](C)C[C@@H]2CC[C@@H](O)[C@H](OC)C2)CC(=O)[C@H](C)/C=C(\C)[C@@H](O)[C@@H](OC)C(=O)[C@H](C)C[C@H](C)/C=C/C=C/C=C/1C | recombinant human CYP3A5 | substrate |  |  |  | intrinsic clearance | 3.96 µL/min/pmol
CC(=O)Nc1ccc(O)cc1 | CYP2C9 | substrate |  |  |  | Km | 660 µM
CC[C@H]1OC(=O)[C@H](C)[C@@H](O[C@H]2C[C@@](C)(OC)[C@@H](O)[C@H](C)O2)[C@H](C)[C@@H](O[C@@H]2O[C@H](C)C[C@H](N(C)C)[C@H]2O)[C@](C)(O)C[C@@H](C)C(=O)[C@H](C)[C@@H](O)[C@]1(C)O | alpha-1-acid glycoprotein |  |  |  |  | fraction unbound | 0.305
C=CC[C@@H]1/C=C(\C)C[C@H](C)C[C@H](OC)[C@H]2O[C@@](O)(C(=O)C(=O)N3CCCC[C@H]3C(=O)O[C@H](/C(C)=C/[C@@H]3CC[C@@H](O)[C@H](OC)C3)[C@H](C)[C@@H](O)CC1=O)[C@H](C)C[C@@H]2OC | human CYP3A4 recombinant | substrate |  |  |  | intrinsic clearance | 38.1 µL/min/pmol
Nc1cc(C(F)(F)F)c(-c2nc(N3CCOCC3)nc(N3CCOCC3)n2)cn1 | Serine/threonine-protein kinase 17A (STK17A, Homo sapiens, UniProt Q9UEE5) | enzyme activity |  | 10 µM | baseline: untreated | remaining activity | 97%

Excerpt of the above:
SMILES | tested on | assay | system | setting | scale | quantity | result
CCNS(=O)(=O)C(F)(F)C(F)(F)C(F)(F)C(F)(F)C(F)(F)C(F)(F)C(F)(F)C(F)(F)F | CYP2D6 |  |  | concentration not given |  | activity | inactive
Cc1cc(-c2nccc3c2ccn3CC(=O)Nc2ccc(-c3cnccn3)cn2)ccn1 | hERG potassium channel | ion current, inhibitor |  | 18.4 µM |  | inhibition | 30.5 ± 4.4%
CC1(C)S[C@@H]2[C@H](NC(=O)[C@H](N)c3ccccc3)C(=O)N2[C@H]1C(=O)O | Pseudomonas aeruginosa |  | clinical isolate RKI-No_230/10 |  |  | MIC | > 16 µg/mL
CC(C)c1nc(N(C)S(C)(=O)=O)nc(-c2ccc(F)cc2)c1/C=C/[C@@H](O)C[C@@H](O)CC(=O)O | BCRP |  | human | oral, 10 mg, together with: eltrombopag 75 mg oral | baseline: eltrombopag alone | Cmax increase | 103%
CCC(C)n1ncn(-c2ccc(N3CCN(c4ccc(OCC5COC(Cn6cncn6)(c6ccc(Cl)cc6Cl)O5)cc4)CC3)cc2)c1=O (stereo not shown) | CYP3A5 |  |  |  |  | Ki | 0.94 µM
Nc1cc(C(F)(F)F)c(-c2nc(N3CCOCC3)nc(N3CCOCC3)n2)cn1 | Serine/threonine-protein kinase 17A (STK17A, Homo sapiens, UniProt Q9UEE5) | enzyme activity |  | 10 µM | baseline: untreated | remaining activity | 97%
O=C(O)CN1CCN(CC(=O)O)CCN(CC(=O)O)CC1 | Cu2+ |  |  | pH 7.4 |  | pCu | 17.6
